# Assay results gathered from unrelated publications.
# Each line is one published result; not all experiments were run side by side. ± marks the error that the study gave.
# lasR: Transcriptional activator protein LasR (lasR, Pseudomonas aeruginosa, UniProt P25084)
# lecA: PA-I galactophilic lectin (lecA, Pseudomonas aeruginosa, UniProt Q05097)
# UniProt P26718, sequence (whole entry, looked up): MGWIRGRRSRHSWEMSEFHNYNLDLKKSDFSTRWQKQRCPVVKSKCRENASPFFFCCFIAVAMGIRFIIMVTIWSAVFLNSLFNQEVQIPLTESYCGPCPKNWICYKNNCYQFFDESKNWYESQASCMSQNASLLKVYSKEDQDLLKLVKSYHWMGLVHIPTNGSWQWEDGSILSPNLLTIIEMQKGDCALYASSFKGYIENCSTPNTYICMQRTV
# UniProt O43525, sequence (whole entry, looked up): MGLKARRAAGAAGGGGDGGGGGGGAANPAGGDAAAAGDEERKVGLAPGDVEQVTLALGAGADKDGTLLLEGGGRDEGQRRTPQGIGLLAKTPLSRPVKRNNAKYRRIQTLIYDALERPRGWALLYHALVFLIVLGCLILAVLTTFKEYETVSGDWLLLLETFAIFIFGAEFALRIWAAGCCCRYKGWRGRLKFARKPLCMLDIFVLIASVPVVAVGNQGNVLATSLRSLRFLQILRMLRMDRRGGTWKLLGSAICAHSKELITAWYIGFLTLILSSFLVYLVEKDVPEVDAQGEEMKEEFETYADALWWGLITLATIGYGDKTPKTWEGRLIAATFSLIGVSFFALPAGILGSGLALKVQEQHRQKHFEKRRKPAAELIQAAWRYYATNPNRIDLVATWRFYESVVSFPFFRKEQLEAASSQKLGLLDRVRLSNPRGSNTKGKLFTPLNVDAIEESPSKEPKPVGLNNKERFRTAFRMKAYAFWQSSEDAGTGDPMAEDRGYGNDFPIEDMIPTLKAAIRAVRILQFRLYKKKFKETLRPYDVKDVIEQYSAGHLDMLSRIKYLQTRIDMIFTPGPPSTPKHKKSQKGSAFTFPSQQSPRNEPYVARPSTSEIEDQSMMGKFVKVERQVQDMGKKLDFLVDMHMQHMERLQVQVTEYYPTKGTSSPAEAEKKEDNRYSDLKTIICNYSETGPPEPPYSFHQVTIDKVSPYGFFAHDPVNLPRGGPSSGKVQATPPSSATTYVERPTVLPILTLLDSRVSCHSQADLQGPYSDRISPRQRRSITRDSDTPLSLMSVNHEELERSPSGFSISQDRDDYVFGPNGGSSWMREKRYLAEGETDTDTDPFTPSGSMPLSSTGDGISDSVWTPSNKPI
# UniProt P68400, sequence (whole entry, looked up): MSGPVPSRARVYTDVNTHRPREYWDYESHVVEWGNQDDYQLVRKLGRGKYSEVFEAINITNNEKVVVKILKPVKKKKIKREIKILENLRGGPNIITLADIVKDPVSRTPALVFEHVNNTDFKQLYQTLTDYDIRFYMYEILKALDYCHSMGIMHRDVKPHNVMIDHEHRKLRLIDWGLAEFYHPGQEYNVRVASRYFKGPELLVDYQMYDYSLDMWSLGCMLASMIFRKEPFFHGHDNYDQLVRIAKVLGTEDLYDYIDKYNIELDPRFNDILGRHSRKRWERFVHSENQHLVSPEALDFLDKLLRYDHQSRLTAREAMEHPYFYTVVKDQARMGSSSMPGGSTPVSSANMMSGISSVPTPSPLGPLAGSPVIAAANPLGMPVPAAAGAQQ
# UniProt P81183, sequence (whole entry, unmodified, looked up): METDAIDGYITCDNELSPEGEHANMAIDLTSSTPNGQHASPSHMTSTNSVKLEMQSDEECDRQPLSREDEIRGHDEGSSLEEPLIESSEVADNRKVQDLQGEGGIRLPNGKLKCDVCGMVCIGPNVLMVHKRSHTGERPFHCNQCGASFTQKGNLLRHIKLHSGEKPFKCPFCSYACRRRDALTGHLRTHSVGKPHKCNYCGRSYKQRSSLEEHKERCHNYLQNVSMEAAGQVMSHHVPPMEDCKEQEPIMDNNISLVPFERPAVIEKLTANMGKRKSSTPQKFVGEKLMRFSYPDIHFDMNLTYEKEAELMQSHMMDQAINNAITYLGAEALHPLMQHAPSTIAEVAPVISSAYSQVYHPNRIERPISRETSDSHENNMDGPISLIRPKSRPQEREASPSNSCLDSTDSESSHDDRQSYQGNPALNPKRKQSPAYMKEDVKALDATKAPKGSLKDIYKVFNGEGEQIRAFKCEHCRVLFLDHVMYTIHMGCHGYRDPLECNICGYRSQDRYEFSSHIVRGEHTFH
# UniProt P0A6M2, sequence (whole entry, looked up): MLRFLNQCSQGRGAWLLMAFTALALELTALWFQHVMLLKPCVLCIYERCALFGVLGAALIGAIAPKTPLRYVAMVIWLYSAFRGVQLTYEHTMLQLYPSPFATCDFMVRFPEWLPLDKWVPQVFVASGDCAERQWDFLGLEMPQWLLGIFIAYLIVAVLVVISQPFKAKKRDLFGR
# UniProt P16234, sequence (whole entry, looked up): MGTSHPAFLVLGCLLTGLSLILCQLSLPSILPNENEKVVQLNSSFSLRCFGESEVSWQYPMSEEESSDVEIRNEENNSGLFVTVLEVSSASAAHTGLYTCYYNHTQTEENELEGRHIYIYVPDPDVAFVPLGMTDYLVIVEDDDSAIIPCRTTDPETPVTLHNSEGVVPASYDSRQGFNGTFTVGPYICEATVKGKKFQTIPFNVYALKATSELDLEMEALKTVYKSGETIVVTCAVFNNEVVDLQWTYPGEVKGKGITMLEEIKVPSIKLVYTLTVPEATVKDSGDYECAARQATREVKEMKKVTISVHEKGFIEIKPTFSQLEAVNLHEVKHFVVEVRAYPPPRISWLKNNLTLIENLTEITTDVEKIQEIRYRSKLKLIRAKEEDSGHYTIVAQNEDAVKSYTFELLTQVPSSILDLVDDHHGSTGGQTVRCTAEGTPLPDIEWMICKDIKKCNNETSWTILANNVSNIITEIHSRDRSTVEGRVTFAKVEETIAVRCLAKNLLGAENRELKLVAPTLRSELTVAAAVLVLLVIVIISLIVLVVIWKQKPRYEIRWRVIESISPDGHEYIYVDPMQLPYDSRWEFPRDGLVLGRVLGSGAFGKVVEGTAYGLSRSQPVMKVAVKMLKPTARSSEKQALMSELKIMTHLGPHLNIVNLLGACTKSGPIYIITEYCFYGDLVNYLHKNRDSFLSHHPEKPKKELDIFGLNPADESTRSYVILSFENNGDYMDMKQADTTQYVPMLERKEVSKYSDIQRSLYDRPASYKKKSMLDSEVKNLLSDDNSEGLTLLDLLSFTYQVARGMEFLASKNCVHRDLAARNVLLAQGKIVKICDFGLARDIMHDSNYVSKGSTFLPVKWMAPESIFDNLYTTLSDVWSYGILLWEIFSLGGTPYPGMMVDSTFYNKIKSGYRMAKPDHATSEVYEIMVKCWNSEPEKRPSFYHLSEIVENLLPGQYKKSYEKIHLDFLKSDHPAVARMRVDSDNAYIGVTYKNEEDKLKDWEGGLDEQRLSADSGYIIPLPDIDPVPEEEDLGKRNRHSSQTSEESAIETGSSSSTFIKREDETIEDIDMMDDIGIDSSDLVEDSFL
# UniProt P56494, sequence (whole entry, looked up): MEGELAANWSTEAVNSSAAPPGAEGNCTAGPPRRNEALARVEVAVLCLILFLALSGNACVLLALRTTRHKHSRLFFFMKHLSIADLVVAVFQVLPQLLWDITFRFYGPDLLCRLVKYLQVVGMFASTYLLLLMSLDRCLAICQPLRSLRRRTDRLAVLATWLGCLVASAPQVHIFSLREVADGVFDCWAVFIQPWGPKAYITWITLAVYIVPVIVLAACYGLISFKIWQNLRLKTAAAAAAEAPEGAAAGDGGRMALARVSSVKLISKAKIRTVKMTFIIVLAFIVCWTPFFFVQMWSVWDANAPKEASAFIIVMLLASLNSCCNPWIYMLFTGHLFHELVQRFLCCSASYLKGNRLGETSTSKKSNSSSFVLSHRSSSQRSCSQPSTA
# UniProt Q8C7D2, sequence (whole entry, unmodified, looked up): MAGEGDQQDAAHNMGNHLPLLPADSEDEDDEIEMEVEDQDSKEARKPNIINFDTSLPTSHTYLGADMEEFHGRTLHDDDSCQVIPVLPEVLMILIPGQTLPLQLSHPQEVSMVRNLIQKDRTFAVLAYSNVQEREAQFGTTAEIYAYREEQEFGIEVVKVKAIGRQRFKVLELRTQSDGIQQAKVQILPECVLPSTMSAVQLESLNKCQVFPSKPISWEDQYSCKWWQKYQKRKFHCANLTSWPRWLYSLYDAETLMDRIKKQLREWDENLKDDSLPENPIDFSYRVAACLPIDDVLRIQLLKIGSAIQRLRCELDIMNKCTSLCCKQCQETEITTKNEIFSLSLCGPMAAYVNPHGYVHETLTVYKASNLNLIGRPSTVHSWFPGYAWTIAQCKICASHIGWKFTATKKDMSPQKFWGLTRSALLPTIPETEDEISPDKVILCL
# UniProt P40261, sequence (whole entry, looked up): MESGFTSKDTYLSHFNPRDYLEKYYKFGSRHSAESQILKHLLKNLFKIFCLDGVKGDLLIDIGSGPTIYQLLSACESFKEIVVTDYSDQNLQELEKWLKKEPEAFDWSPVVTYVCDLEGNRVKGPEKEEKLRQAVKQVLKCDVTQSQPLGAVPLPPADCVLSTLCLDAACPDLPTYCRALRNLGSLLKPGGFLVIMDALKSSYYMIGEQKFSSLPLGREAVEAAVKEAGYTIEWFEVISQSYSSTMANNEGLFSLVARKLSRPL
# UniProt Q6TCG2, sequence (whole entry, looked up): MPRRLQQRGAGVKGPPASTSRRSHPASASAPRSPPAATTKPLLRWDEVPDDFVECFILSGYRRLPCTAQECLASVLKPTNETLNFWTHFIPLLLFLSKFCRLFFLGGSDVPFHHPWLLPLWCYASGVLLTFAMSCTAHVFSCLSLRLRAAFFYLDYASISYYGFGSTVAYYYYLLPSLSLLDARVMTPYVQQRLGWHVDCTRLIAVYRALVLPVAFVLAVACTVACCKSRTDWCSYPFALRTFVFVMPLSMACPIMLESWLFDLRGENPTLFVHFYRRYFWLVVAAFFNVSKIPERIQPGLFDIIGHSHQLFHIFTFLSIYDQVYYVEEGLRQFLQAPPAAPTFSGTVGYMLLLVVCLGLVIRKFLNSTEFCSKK
Structure (SMILES),target,assay,system,conditions,how to read,endpoint,result
C[C@@]1(O)CC[C@H]2[C@H](CC[C@@H]3[C@@H]2CC[C@]2(C)[C@@H](C(=O)Cn4cccn4)CC[C@@H]32)C1,"Membrane progesterone receptor epsilon (Paqr9, Mus musculus, UniProt Q6TCG2)",pPKA/PKA immunoblot,MDA-MB-231 expressing Paqr9-GFP,"3 nM, 20 min",relative to: control,PKA activation,92.3 ± 11.7%
CC(=O)NC(Cc1ccc(Br)c(Cl)c1)C(=O)N[C@@H](C)C(=O)N1CCC[C@H]1C(=O)N1CCC[C@H]1C(=O)N[C@@H](CCC(=O)O)C(=O)N[C@@H](Cc1c[nH]cn1)C(=O)N[C@@H](CO)C(=O)N[C@H](C(=O)N[C@@H](C)C(N)=O)[C@@H](C)OP(=O)(O)O (stereo partly drawn),"PDGFRA (Homo sapiens, UniProt P16234)","enzyme activity, inhibitor",,10 µM,,inhibition,4.04%
O=C(N[C@H]1CCOC1=O)c1ccc(-n2cc(C3CCCC3)nn2)cc1,lasR,"reporter gene, agonist",Escherichia coli DH5α pJN105L/pSC11,10 µM,relative to: OdDHL 100 µM,activation,1%
CC(C)P(=S)(NP(=S)(C(C)C)C(C)C)C(C)C,"Alpha-amylase (Bacillus subtilis, UniProt P00691)",fluorescence quenching,,"concentration not given, pH 6.8, 304 K",,ΔG of binding,-4.12 kcal/mol
CC[C@H](C)[C@@H]1NC(=O)[C@H](CC(C)C)NC(=O)[C@H]([C@@H](C)CC)NC(=O)[C@H](CC(C)C)NC(=O)[C@H](CCCNC(=N)N)NC(=O)[C@H](CCCNC(=N)N)NC(=O)CNC(=O)[C@H](CO)NC(=O)[C@H](CC(C)C)NC(=O)[C@H]([C@@H](C)CC)NC(=O)[C@H]([C@@H](C)CC)NC(=O)[C@H]([C@@H](C)CC)NC(=O)[C@H](CC(C)C)NC(=O)[C@H](CCC(N)=O)NC(=O)[C@H](CCCCN)NC(=O)[C@@H](Cc2ccc(O)cc2)NC(=O)CSC[C@@H](C(=O)NCC(N)=O)NC1=O,"NNMT (Homo sapiens, UniProt P40261)",inhibitor,,"increasing inhibitor concentration, added: nicotinamide 200 µM",,Km of SAM,no effect
O=C(N[C@H]1CCOC1=O)c1ccc(-c2cn(-c3ccc4[nH]ccc4c3)nn2)cc1,lasR,"reporter gene, agonist","Escherichia coli, DH5α pJN105L/pSC11",100 µM,relative to: OdDHL at same concentration,activation,1%
CCCCC/C=C\C/C=C\C/C=C\C/C=C\CCCC(=O)NC(CO)C(=O)O (stereo in doubt),"Voltage-gated potassium channel, KQT; KCNQ2(Kv7.2)/KCNQ3(Kv7.3) (KCNQ3/KCNQ2, Homo sapiens, UniProt O43525+O43526)",two-electrode voltage clamp,Xenopus oocytes,10 µM,,onset time,≤ 2 min
O=[N+]([O-])c1ccc(OP(=O)(O)O)cc1,"Alkaline phosphatase PafA (pafA, Elizabethkingia meningoseptica, UniProt Q9KJX5, N100A)",substrate,,pH 8.0,,kcat,0.39 s^–1
CC(C)C[C@H](NC(=O)CNC(=O)[C@H](CCC(=O)O)NC(=O)[C@H](CCCCN)NC(=O)[C@H](CC(C)C)NC(=O)[C@H](C)NC(=O)[C@H](C)NC(=O)CNC(=O)[C@H](C)NC(=O)[C@H](CCCCN)NC(=O)[C@H](CCC(=O)O)NC(=O)[C@H](CC(C)C)NC(=O)[C@H](CCCCN)NC(=O)[C@H](CCCCN)NC(=O)[C@H](CC(C)C)NC(=O)[C@H](CC(C)C)NC(=O)[C@H](CCCCN)NC(=O)[C@H](Cc1c[nH]c2ccccc12)NC(=O)[C@@H](N)CCCCN)C(=O)N[C@@H](CC(C)C)C(=O)N[C@@H](CCCCN)C(=O)N[C@@H](C)C(=O)NCC(=O)N1CCC[C@H]1C(=O)N[C@@H](C)C(=O)N[C@@H](CC(C)C)C(=O)N[C@@H](C)C(=O)N[C@@H](CC(C)C)C(=O)N[C@@H](CC(C)C)C(=O)NCC(=O)N[C@@H](C)C(=O)N[C@@H](C)C(=O)N[C@@H](C)C(=O)N[C@@H](C)C(=O)N[C@@H](CC(C)C)C(=O)N[C@@H](C)C(=O)N[C@@H](CCCCN)C(N)=O,POPC membrane,"membrane binding, stopped-flow FRET",,"mole fraction units, room temperature",,binding free energy,-5.6 kcal/mol
Cn1cc(-c2cccc(CN3CCC4(CC3)COc3c4ccc4c3CN([C@H]3CCC(=O)NC3=O)C4=O)c2)cn1,"Ikzf2/Crbn (Mus musculus, UniProt P81183+Q8C7D2, I391V)",,"mouse Crbn I391V, spleen","oral, 10 mg/kg single dose, 6 h",,degradation,70%
CN(C)C(=O)C(NC(=O)c1ccccc1-c1ccc(C(F)(F)F)cc1)c1cccc(C(F)(F)F)c1 (stereo not drawn),"NKG2-D type II integral membrane protein, with MICA (KLRK1, Homo sapiens, UniProt P26718)",,,,,Emax,97%
CC[C@H](C)[C@@H]1NC(=O)[C@H](Cc2ccc(O)cc2)NC(=O)[C@@H](N)CSSC[C@@H](C(=O)N2CCC[C@H]2C(=O)N2CCC[C@H]2C(=O)NCC(N)=O)NC(=O)[C@H](CC(N)=O)NC(=O)[C@H](CCC(N)=O)NC1=O,"Oxytocin receptor (Macaca mulatta, UniProt P56494)","Ca2+ mobilisation, agonist",CHO cells,,,Emax,3390 RFU
O=P(O)(O)Oc1ccccc1,"Alkaline phosphatase PafA (pafA, Elizabethkingia meningoseptica, UniProt Q9KJX5, K162A)",,Chryseobacterium meningosepticum,pH 8.0,relative to: wild type over mutant kcat/KM,relative catalytic efficiency,100000
CC[C@H](C)[C@H](NC(=O)[C@H](Cc1c[nH]cn1)NC(=O)[C@H](CCCCNC(=O)[C@@H](NC(=O)[C@H](CCCCN)NC(=O)[C@H](Cc1ccccc1)NC(=O)[C@H](CCCCNC(=O)[C@H](CC(C)C)NC(=O)[C@@H]1CCCN1C(=O)[C@H](CCCCN)NC(=O)c1ccc(O[C@@H]2O[C@H](CO)[C@H](O)[C@H](O)[C@H]2O)cc1)NC(=O)[C@H](CC(C)C)NC(=O)[C@@H]1CCCN1C(=O)[C@H](CCCCN)NC(=O)c1ccc(O[C@@H]2O[C@H](CO)[C@H](O)[C@H](O)[C@H]2O)cc1)[C@@H](C)CC)NC(=O)[C@@H](NC(=O)[C@H](CCCCN)NC(=O)[C@H](Cc1ccccc1)NC(=O)[C@H](CCCCNC(=O)[C@H](CC(C)C)NC(=O)[C@@H]1CCCN1C(=O)[C@H](CCCCN)NC(=O)c1ccc(O[C@@H]2O[C@H](CO)[C@H](O)[C@H](O)[C@H]2O)cc1)NC(=O)[C@H](CC(C)C)NC(=O)[C@@H]1CCCN1C(=O)[C@H](CCCCN)NC(=O)c1ccc(O[C@@H]2O[C@H](CO)[C@H](O)[C@H](O)[C@H]2O)cc1)[C@@H](C)CC)C(N)=O,lecA,isothermal titration calorimetry,,"pH 7.5, 25 °C, added: 25 mM CaCl2",,ΔG,-9.4 kcal/mol
CC[C@H](C)[C@H](NC(=O)[C@H](CCCCN)NC(=O)[C@H](Cc1ccccc1)NC(=O)[C@H](CCCCNC(=O)[C@H](CC(C)C)NC(=O)[C@@H]1CCCN1C(=O)[C@H](CCCCN)NC(=O)CCS[C@@H]1O[C@H](CO)[C@H](O)[C@H](O)[C@H]1O)NC(=O)[C@H](CC(C)C)NC(=O)[C@@H]1CCCN1C(=O)[C@H](CCCCN)NC(=O)CCS[C@@H]1O[C@H](CO)[C@H](O)[C@H](O)[C@H]1O)C(N)=O,lecA,"binding, isothermal titration calorimetry",,divided by galactoside copies,relative to: monovalent galactoside KD over ligand KD,relative potency per galactoside,18
CCNCCN(C)c1ccc(Nc2cc(NC3CC3)n3ncc(C#N)c3n2)cc1NC(=O)CC,"CSNK2A1 (Homo sapiens, UniProt P68400)","binding, NanoBRET",,,relative to: CSNK2A1 over CSNK2A2,selectivity ratio,6 to 8 fold
CN1C(=O)[C@H](Cc2ccccc2)N(C)C(=O)[C@@H]2[C@H]1CCN2Cc1cc(Cl)cc(Cl)c1,"NKG2-D type II integral membrane protein, with ULBP6 (KLRK1, Homo sapiens, UniProt P26718)","ligand binding, inhibitor, TR-FRET",HEK293 expressing NKG2D and DAP10,added: ULBP6-AF647,relative to: positive control,maximum inhibition,58%
Nc1ccc(C(O)(C(F)(F)F)C(F)(F)F)cc1,"Amyloid-beta precursor protein, amyloid-beta 1-40 oligomers (APP, Homo sapiens, UniProt P05067)",,,200 µM,,activity,inactive
COc1cc2c(cc1O)oc(=O)c1c3cc(O)c(O)cc3oc21,"Genome polyprotein, NS5B polymerase (Hepatitis C virus genotype 1b, UniProt P26663)","RNA polymerase activity, uncompetitive inhibitor",,"added: poly rA/U12 varied, UTP 25 µM",,Ki,37.5 µM
O=c1c(Cl)c(Cl)cnn1Cc1ccccc1,"Disulfide bond formation protein B (Escherichia coli, UniProt P0A6M2)","DsbA oxidation, inhibitor, AMS alkylation immunoblot",,aerobic growth,,concentration for full inhibition,20 to 50 µM
CCN(Cc1ccccc1)C(=O)CCc1nc(CN2CCN(C(=O)Cc3ccc(OC)c(OC)c3)CC2)no1,"Sodium channel protein type 11 subunit alpha (Scn11a, Rattus norvegicus, UniProt O88457)","sodium current, whole-cell patch clamp",rat DRG neurons,1 µM,,inactivation V1/2,-97.6 ± 12.8 mV
